Published values collected from several papers.
Compare with care: the assays were run in different laboratories. “And” joins repeats or separate records; there may be more than shown. ± marks the error that the study gave.
Chain of UniProt Q9C0E2 (whole entry, looked up): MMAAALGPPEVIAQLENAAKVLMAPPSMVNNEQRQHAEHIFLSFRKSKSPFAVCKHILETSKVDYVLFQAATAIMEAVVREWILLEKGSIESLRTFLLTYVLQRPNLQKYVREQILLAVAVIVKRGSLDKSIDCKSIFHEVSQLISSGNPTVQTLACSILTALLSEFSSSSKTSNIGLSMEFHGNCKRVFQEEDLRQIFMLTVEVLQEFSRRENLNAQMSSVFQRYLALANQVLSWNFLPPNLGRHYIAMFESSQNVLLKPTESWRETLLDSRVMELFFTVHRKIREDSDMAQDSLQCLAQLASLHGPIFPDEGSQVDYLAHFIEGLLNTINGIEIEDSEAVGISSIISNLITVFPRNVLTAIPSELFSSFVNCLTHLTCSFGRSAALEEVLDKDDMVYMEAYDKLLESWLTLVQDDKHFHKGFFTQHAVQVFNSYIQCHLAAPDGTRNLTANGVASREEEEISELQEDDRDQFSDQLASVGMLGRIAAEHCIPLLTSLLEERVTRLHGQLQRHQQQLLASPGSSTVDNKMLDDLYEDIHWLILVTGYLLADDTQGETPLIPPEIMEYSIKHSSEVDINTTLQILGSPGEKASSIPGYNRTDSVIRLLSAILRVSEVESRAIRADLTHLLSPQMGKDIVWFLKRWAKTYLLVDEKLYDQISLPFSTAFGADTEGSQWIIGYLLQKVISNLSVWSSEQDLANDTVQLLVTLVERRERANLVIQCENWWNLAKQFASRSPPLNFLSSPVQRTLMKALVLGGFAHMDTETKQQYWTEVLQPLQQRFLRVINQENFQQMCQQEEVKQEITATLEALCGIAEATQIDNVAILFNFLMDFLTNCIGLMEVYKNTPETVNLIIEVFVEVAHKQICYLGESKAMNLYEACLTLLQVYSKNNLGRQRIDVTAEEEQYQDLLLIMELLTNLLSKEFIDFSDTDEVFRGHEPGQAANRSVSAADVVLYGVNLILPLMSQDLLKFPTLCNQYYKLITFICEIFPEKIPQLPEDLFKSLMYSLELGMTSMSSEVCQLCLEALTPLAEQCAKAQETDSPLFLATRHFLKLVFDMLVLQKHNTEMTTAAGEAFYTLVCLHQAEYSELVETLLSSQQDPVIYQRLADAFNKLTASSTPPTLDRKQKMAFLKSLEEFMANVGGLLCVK

Structure (SMILES) | target or system | test | test system | conditions | how to read | measurement | result
Clc1ccc(-c2ccc(Cl)c(Cl)c2)cc1Cl | – | – | fresh water | 20 °C, S100 sampler, 100 µm | – | log K(PDMS-water) | 5.52 ± 0.03
COc1cc2c(Oc3ccc4[nH]c(C)cc4c3F)ccnc2cc1OCC1(N)CC1 | – | – | paediatric recurrent refractory sarcoma | 8 mg/kg | – | grade 3 Thrombocytopenia | 0%
CO[C@H]1C[C@@H]2CC[C@@H](C)[C@@](O)(O2)C(=O)C(=O)N2CCCC[C@H]2C(=O)O[C@H]([C@H](C)C[C@@H]2CC[C@@H](OC(=O)NCCOCCOCCOCCOCCOCCOCCOCCOCCC(=O)N3CCc4cc(Cn5nc(-c6ccc7oc(N)nc7c6)c6c(N)ncnc65)ccc4C3)[C@H](OC)C2)C[C@@H](O)[C@H](C)/C=C(\C)[C@@H](O)[C@@H](OC)C(=O)[C@H](C)C[C@H](C)/C=C/C=C/C=C/1C | – | – | patients with advanced solid tumours | intravenous, dose not given, any grade | – | incidence of Vomiting TRAE | 26.3%
COc1cccc(Oc2ccccc2NC(=O)CNC(=O)c2cccc3ccccc23)c1 | – | – | esterase-deficient SCID mice, male | oral, 15 mg/kg/day, 14 days, toxicity study | – | serum calcium | 9.3 mg/dL and 10.5 mg/dL
O=[N+]([O-])c1cc2c3c(ccc2c2ccccc12)[C@@H](O)[C@H](O)C=C3 | – | item: adenocarcinoma mammary tumours | female Sprague-Dawley rats | intramammary, 12.3 µmol per rat, up to 32 weeks | – | tumours per rat | 0.21 ± 0.5
COc1cccc(-c2ccnc(Nc3ccc(N4CCN(C)CC4)c(C(F)(F)F)c3)n2)c1 | – | – | zebrafish embryos | 25 µM, 5 d | – | toxicity | 0%
Clc1cc(-c2cc(Cl)c(Cl)c(Cl)c2Cl)cc(Cl)c1Cl | – | – | PDMS-water partitioning | PCB compilation | reference: maximum over minimum K | literature range factor | 1.1
O=S(=O)(Nc1ccccc1)c1ccc(NC(=S)Nc2ccccc2)cc1 | – | item: CREA | female mouse, blood | oral, 5 mg/kg daily, 14 days | – | blood chemistry level | 0.22 mg/dL
c1ccc2c(c1)-c1cccc3c1c-2cc1ccccc13 | – | – | fresh water | 12 (unit not given), 20 °C, S30-2 sampler, 30 µm | – | log K(PDMS-water) | 5.22 ± 0.03
Cn1cncc1-c1c(F)cncc1NC(=O)c1c(N)nn2cc(F)cnc12 | – | – | human patients | oral, 220 mg once daily | – | grade ≥3 lymphocyte decrease incidence | 67%
CC(C)C[C@@H]1NC(=O)CNC(=O)[C@H](CC(N)=O)NC(=O)[C@H](CCCNC(=N)N)NC(=O)[C@H]([C@@H](C)O)NC(=O)[C@@H]2CSSC[C@@H]3NC(=O)[C@H]([C@@H](C)O)NC(=O)CNC(=O)[C@H](CCCCN)NC(=O)[C@H](C(C)C)NC(=O)[C@@H]4CSSC[C@H](NC(=O)[C@H]([C@@H](C)O)NC(=O)[C@H](CSSC[C@H](NC(=O)[C@H](C(C)C)NC(=O)[C@@H]5CCCN5C1=O)C(=O)NCC(=O)N[C@@H](CCC(=O)O)C(=O)N[C@@H]([C@@H](C)O)C(=O)N4)NC(=O)CNC(=O)[C@@H]1CCCN1C(=O)[C@H]([C@@H](C)O)NC(=O)[C@H](CC(N)=O)NC3=O)C(=O)N[C@@H](CO)C(=O)N[C@@H](Cc1c[nH]c3ccccc13)C(=O)N1CCC[C@H]1C(=O)N[C@@H](C(C)C)C(=O)N2 | – | HPLC | water | 180 µM, 14 days, 37 °C, deamidation stability | – | remaining peptide | 97.1 ± 0.5%
C[C@H]1CN(c2n[nH]c3nc(N[C@H]4CC[C@H](NS(=O)(=O)CCC(F)(F)F)CC4)ncc23)CCO1 | Exportin-4 (Homo sapiens, UniProt Q9C0E2) | Kinobeads competition, item: XPO4 | – | 0.16 µM, unit not given | reference: vehicle | remaining binding | 1.59
CC[C@H](C)[C@@H]1NC(=O)[C@@H]2CCCN2C(=O)[C@H](CC(C)C)NC(=O)[C@H](CC(C)C)NC(=O)CNC(=O)[C@@H](NC(=O)[C@@H](NC(=O)[C@H](CC(=O)O)NC(=O)CNC(=O)[C@@H](NC(=O)[C@H](C)NC(=O)CNC(=O)[C@H](CCCCN)NC(=O)[C@H](CC(C)C)NC(=O)[C@H](CC(C)C)NC(=O)[C@H](CCCCN)NC(=O)CNC(=O)[C@@H](NC(=O)[C@@H](N)CC(C)C)C(C)C)C(C)C)C(C)C)CSSC[C@@H](C(=O)O)NC1=O | – | RNA-seq, item: Mgam mRNA | mouse traumatic brain injury, frontal cortex and hippocampus | dose not given | reference: TBI plus compound vs TBI | log2 fold change | -3.5
O[C@H]1CCCN[C@@H]1CCCn1cnc2c(Cl)c(Cl)ccc21 | – | – | healthy human, plasma | oral, 150 mg twice daily, steady state | – | Cmax | 310 ng/mL
NC(=O)[C@H]1CCN(c2ncnc(N)c2F)C[C@@H]1N1CCC[C@@H](Nc2cc(Cl)cc(C(F)(F)F)c2)C1=O | – | – | B-cell malignancy patients | oral, 41 mg twice daily, dose | – | grade ≥3 hypocalcaemia | 10%
CC(C)CC(=O)OC[C@H]1O[C@@](C#N)(c2ccc3c(N)ncnn23)[C@H](O)[C@@H]1O | – | plasma protein binding | rat plasma | 9 µM | – | unbound fraction | 0.0817
CCN(CCO)CCCC(C)Nc1ccnc2cc(Cl)ccc12 (stereo not shown) | – | – | newly diagnosed glioblastoma patients | oral, 400 mg/dose, grade 1, added: radiotherapy plus temozolomide | – | platelet count decreased patients | 66%

Structure (SMILES) | target or system | test | test system | conditions | how to read | measurement | result
O=C1Nc2cc3[nH]nc(-c4ccncc4)c3cc2CN1Cc1ccccc1 | – | CTCAE v4.03 | advanced solid tumour patients | intravenous, 9.6 mg/kg, schedules 1/2 | – | patients with acneiform dermatitis | 22%
CN1CC[C@@H](c2c(O)cc(O)c3c(=O)cc(-c4ccc(C(F)(F)F)cc4Cl)oc23)[C@@H]1CO | – | item: Dizziness | AML | oral, 100 mg, intermittent dosing | – | patients with adverse event | 0%
C[C@]1(CO)Cc2ncn(-c3ccc(C#N)c(Cl)c3)c2C(=O)O1 | – | – | human, Chinese, plasma | 80 mg single dose, geometric mean | – | half-life | 5.4 h
CCOc1cc(Oc2ccc(C(F)(F)F)cc2Cl)ccc1[N+](=O)[O-] | – | – | rat male | 7.5 mg/kg, 8 days | – | final body weight | 172 ± 4.69 g
Clc1ccc(-c2ccccc2)cc1 | – | – | Sprague-Dawley rats, female, serum | inhalation, 23 µg/rat, 2 h after exposure | – | chloride | 76 ± 22 mmol/L
CN[C@@H](C)C(=O)N[C@H]1CN(S(=O)(=O)c2cccc(S(=O)(=O)N3CC[C@H]4CC[C@@H](C(=O)NC(c5ccccc5)c5ccccc5)N4C(=O)[C@@H](NC(=O)[C@H](C)NC)C3)c2)CC[C@H]2CC[C@@H](C(=O)NC(c3ccccc3)c3ccccc3)N2C1=O | – | – | patients with advanced solid tumours | 20 mg, phase I monotherapy | – | treatment-related pruritus incidence | 20%
Clc1cc(Cl)cc(-c2cc(Cl)ccc2Cl)c1 | – | – | fresh water | 20 °C, SSP sampler, 100 µm | – | log K(PDMS-water) | 5.66 ± 0.03
COc1ccc(-c2c(-c3ccc(C#N)c(F)c3)nc(N3CCC(N)CC3)n(C)c2=O)cc1F | – | item: Constipation | human patients | oral, 60 mg, dose expansion | – | serious adverse event incidence | 0%
CC[C@H](C)[C@H](NC(=O)[C@H](Cc1ccccc1)NC(=O)[C@H](CCC(=O)O)NC(=O)[C@H](CCCNC(=N)N)NC(=O)[C@H](C)NC(=O)[C@H](C)NC(=O)[C@H](CCC(N)=O)NC(=O)[C@H](CCC(=O)O)NC(=O)[C@H](CCC(=O)O)NC(=O)[C@H](CC(C)C)NC(=O)[C@H](Cc1ccc(O)cc1)NC(=O)[C@H](CO)NC(=O)[C@H](CO)NC(=O)[C@@H](NC(=O)[C@H](CC(=O)O)NC(=O)[C@H](CO)NC(=O)[C@@H](NC(=O)[C@H](Cc1ccccc1)NC(=O)[C@@H](NC(=O)CNC(=O)[C@H](CCC(=O)O)NC(=O)[C@H](C)NC(=O)CCc1cnc[nH]1)[C@@H](C)O)[C@@H](C)O)C(C)C)C(=O)N[C@@H](C)C(=O)N[C@@H](Cc1c[nH]c2ccccc12)C(=O)N[C@@H](CC(C)C)C(=O)N[C@H](C(=O)N[C@@H](CCCNC(=N)N)C(=O)NCC(=O)N[C@@H](CCCNC(=N)N)C(=O)N[C@@H](CCCCNC(=O)COCCOCCNC(=O)COCCOCCNC(=O)CC[C@H](NC(=O)CCCCCCCCCCCCCCCCC(=O)O)C(=O)O)C(=O)NCC(=O)NCC(=O)N[C@@H](CO)C(=O)N[C@@H](CCCCNC(=O)[C@H](CCCCNc1c(NCCCCCN(O)C(=O)CCC(=O)NCCCCCN(O)C(=O)CCC(=O)NCCCCCN(O)C(C)=O)c(=O)c1=O)Nc1c(NCCCCCN(O)C(=O)CCC(=O)NCCCCCN(O)C(=O)CCC(=O)NCCCCCN(O)C(C)=O)c(=O)c1=O)C(=O)O)C(C)C [zirconium-89 labelled] | – | ex vivo gamma counting | Sprague-Dawley rat, male, intestine | intravenous, 1 nmol, 24 h | – | tissue uptake | 0.223 %ID/g and 0.185 %ID/g and 0.163 %ID/g and 0.182 %ID/g and 0.211 %ID/g
CC1(C)[C@H](C(=O)OCc2cccc(Oc3ccccc3)c2)[C@@H]1C=C(Cl)Cl | – | – | pooled human liver cytosol | – | – | CLint | 57.2 µL/min/mg
COc1cccc2c1CCCC2CCCN1CCN(C2CCCCC2)CC1 (stereo not shown) | – | – | CD-1 mouse, male, plasma | intraperitoneal, 10 mg/kg | – | elimination rate constant | 2.68e-05 s⁻¹
CCCCCCCCCCCCCCCC(=O)N[C@@H](CCC(=O)NCCCC[C@H](NC(=O)[C@H](CC(=O)O)NC(=O)[C@H](CO)NC(=O)[C@@H](NC(=O)[C@H](Cc1ccccc1)NC(=O)[C@@H](NC(=O)CNC(=O)[C@H](CCC(N)=O)NC(=O)[C@H](CO)NC(=O)[C@@H](N)Cc1c[nH]cn1)[C@@H](C)O)[C@@H](C)O)C(=O)N[C@@H](CO)C(=O)N[C@@H](CCC(=O)O)C(=O)N[C@@H](Cc1ccc(O)cc1)C(=O)N[C@@H](CC(C)C)C(=O)N[C@@H](CC(=O)O)C(=O)N[C@@H](CO)C(=O)N[C@@H](CCC(=O)O)C(=O)N[C@@H](CCCNC(=N)N)C(=O)N[C@@H](C)C(=O)N[C@@H](CCCNC(=N)N)C(=O)N[C@@H](CC(=O)O)C(=O)N[C@@H](Cc1ccccc1)C(=O)N[C@H](C(=O)N[C@@H](C)C(=O)N[C@@H](Cc1c[nH]c2ccccc12)C(=O)N[C@@H](CC(C)C)C(=O)N[C@@H](CCC(=O)O)C(=O)N[C@@H](C)C(=O)NCC(=O)NCC(=O)O)C(C)C)C(=O)O | – | item: Diarrhoea | humans CrCl 30 to 45 mL/min | subcutaneous, 100 µg single dose | – | treatment-related adverse events | 9.1%
N.N.[Cl][Pt][Cl] | – | – | mouse xenograft model | dose not given, day 4, group mean | – | body weight | 24.2 g
C=CC(=O)Nc1cc(Nc2ncc(C(=O)OC(C)C)c(-c3cn(C)c4ccccc34)n2)c(OC)cc1N(C)CCN(C)C | – | item: body weight | tumour-bearing mice | all doses tested | – | tolerability | not toxic
Clc1ccc(Cl)c(-c2cc(Cl)ccc2Cl)c1 | – | – | Sprague Dawley rat | intraperitoneal, 100 mg/kg | – | relative liver weight | 0.0417 g/g body weight
C/C=C1/CN2CC[C@]34C(=C(C(=O)OC)[C@H]1C[C@H]23)Nc1ccccc14 | – | – | rat liver microsomes, male | 1 µM, pH 7.4 | – | CLint | 22.8 ± 0.5 µL/min/mg
CCc1ccc(CC/C=C/c2ccc3c(c2)C(=O)CC3)cc1 | – | – | Sprague-Dawley rat, female | oral, 30 mg/kg/day, 14 days | – | Erythrocyte percentage | 11%

For quick reference, copied from above:
Structure (SMILES) | target or system | test | test system | conditions | how to read | measurement | result
Clc1ccc(-c2ccc(Cl)c(Cl)c2)cc1Cl | – | – | fresh water | 20 °C, S100 sampler, 100 µm | – | log K(PDMS-water) | 5.52 ± 0.03
CO[C@H]1C[C@@H]2CC[C@@H](C)[C@@](O)(O2)C(=O)C(=O)N2CCCC[C@H]2C(=O)O[C@H]([C@H](C)C[C@@H]2CC[C@@H](OC(=O)NCCOCCOCCOCCOCCOCCOCCOCCOCCC(=O)N3CCc4cc(Cn5nc(-c6ccc7oc(N)nc7c6)c6c(N)ncnc65)ccc4C3)[C@H](OC)C2)C[C@@H](O)[C@H](C)/C=C(\C)[C@@H](O)[C@@H](OC)C(=O)[C@H](C)C[C@H](C)/C=C/C=C/C=C/1C | – | – | patients with advanced solid tumours | intravenous, dose not given, any grade | – | incidence of Vomiting TRAE | 26.3%
O=[N+]([O-])c1cc2c3c(ccc2c2ccccc12)[C@@H](O)[C@H](O)C=C3 | – | item: adenocarcinoma mammary tumours | female Sprague-Dawley rats | intramammary, 12.3 µmol per rat, up to 32 weeks | – | tumours per rat | 0.21 ± 0.5
CC1(C)[C@H](C(=O)OCc2cccc(Oc3ccccc3)c2)[C@@H]1C=C(Cl)Cl | – | – | pooled human liver cytosol | – | – | CLint | 57.2 µL/min/mg
COc1cccc(Oc2ccccc2NC(=O)CNC(=O)c2cccc3ccccc23)c1 | – | – | esterase-deficient SCID mice, male | oral, 15 mg/kg/day, 14 days, toxicity study | – | serum calcium | 9.3 mg/dL and 10.5 mg/dL
